Measurements gathered from unrelated publications.
A part holds a random share of what one study measured.

Set 1
Target: Cyclic AMP-dependent transcription factor ATF-1 (ATF1, Homo sapiens, UniProt P18846, residues 1-271, full length assumed)
Method: protein-binding microarray
Form: double-stranded DNA, one strand shown
Matrix: in vitro
Concentration: not given
Setting: k-mer, scored over probes, only values ≥0.25
Direction: higher = stronger binding
Construct (chain): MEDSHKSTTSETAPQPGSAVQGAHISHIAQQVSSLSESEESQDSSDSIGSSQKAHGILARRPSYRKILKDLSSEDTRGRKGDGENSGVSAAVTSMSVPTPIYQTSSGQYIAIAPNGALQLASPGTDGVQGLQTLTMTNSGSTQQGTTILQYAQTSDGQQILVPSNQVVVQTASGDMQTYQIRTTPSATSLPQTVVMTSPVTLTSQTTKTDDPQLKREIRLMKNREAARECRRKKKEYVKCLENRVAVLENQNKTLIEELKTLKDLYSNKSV
Strand	E-score
ATGACAG	0.258
ACGTCGG	0.321
CATGACA	0.296
CGTCACC	0.483
CACGTAC	0.282
ACGACAT	0.313
CGCGTCA	0.48
AGACGTC	0.299
ACGTGCG	0.319
CTATGAC	0.408
ACGTTAT	0.347
CGTACGA	0.256
CGTGACA	0.356
AGTCACG	0.274
GTGGGGA	0.264
CAACGTC	0.388

Set 2
Target: Histone acetyltransferase KAT6A, winged helix 2, GST fusion (KAT6A, Homo sapiens, UniProt Q92794, residues 85-181)
Method: protein binding microarray
Form: double-stranded DNA, one strand shown
Matrix: in vitro
Concentration: not given
Setting: 8-mer, flanks averaged, mean of 2 arrays, mostly near background
Relative to: not given
Direction: higher = stronger binding
Residues (chain): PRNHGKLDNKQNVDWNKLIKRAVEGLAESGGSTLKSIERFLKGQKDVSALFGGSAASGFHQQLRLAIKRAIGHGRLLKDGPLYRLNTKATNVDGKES
Strand	E-score
CTCCCGGA	0.215
CTACTGAA	-0.0383
ACAACCCG	-0.0491
ATTCAATC	-0.0341
CCACGTCA	-0.0912
CTCGGGAA	0.166
TATCGAGA	0.00896
AGGCAACG	0.145
CCAAATTA	0.0454
AGCGCCAA	-0.0725
CGAGACAC	-0.0644
CAGATGAC	-0.172
CGGTCAGA	0.0627
GATATGAC	-0.0281
CCGTGTGA	0.0343
AGCTACCC	-0.0821
CCGTGAAC	0.0628
AGGTTTCG	-0.0386
CATATCGG	-0.188
ATCAGAGG	0.0915
TCCGAACA	0.00776
CATCCATC	-0.226
ACGTCATG	-0.11
ATCCTGCA	0.0554
AGTCACAA	-0.0423

Set 3
Target: Interferon regulatory factor 5, full length, phosphomimetic (IRF5, Homo sapiens, UniProt Q13568-2, residues 1-514, K96S/S451D/S453D/S456D/S462D)
Method: protein-binding microarray
Form: double-stranded DNA, one strand shown
Matrix: in vitro
Concentration: 250 nM
Setting: 60-bp whole probe
With: salmon DNA 0.4 mg/ml
Relative to: random background probes
Direction: higher = stronger binding
All sequences stand within: GCCTAGCAC … GTCTTGATTCGCTTGACGCTGCTG
Strand	log fluorescence
GACGATCTCAGTCCCGAGACGTGCTAG	-0.373 z-score
TTTTCTCTTATTCTAACAGCGTGCTAG	1.99 z-score
TCAGCTCTCTGGACTGTGACTGTGCTA	-0.015 z-score
TTAGGACTGGACACTGGGTTGGTGCTA	-0.635 z-score
TCAGCTCCCTTTCTCTCTGTGTGCTAG	0.732 z-score
ATAGAACTGAGTCTCGATTAGTGCTAG	0.673 z-score
GACGATAACAGTATCGAGACGTGCTAG	2.8 z-score
TCATTTTGAGTTTTCCTACTGTGCTAG	0.833 z-score
TTAGGTATCGACTTTCGGTTTGTGCTA	9.97 z-score
TCAAAAGTCTTTTATGGTACTGTGCTA	0.263 z-score
GACGATCTCATTTTCGAGACGTGCTAG	2.01 z-score
GAAGGTTCCGGTTTCGGGACGTGCTAG	4.51 z-score
TTAGATTTCAGACCGGATTAGTGCTAG	0.161 z-score
TTAGGTTTCGGCATCGGTTAGTGCTAG	7.75 z-score
TCATTTTTCCTAATTGAACTGTGCTAG	0.584 z-score
GACGGACTGGGGCTTCGGGACGTGCTA	-0.701 z-score
GGGATAAGGACAGACACCATGTGCTAG	-0.166 z-score
GACGGACTGTACTATCGGGACGTGCTA	1.49 z-score
GACGGTATCGGGTATGGGGACGTGCTA	2.35 z-score

Set 4
Target: Prothrombin, mature alpha-thrombin (F2, Homo sapiens, UniProt P00734)
Method: aptamer microarray, sandwich
Form: DNA with 2'F-ANA
Matrix: in vitro
Concentration: 200 nM
Setting: whole 15-mer aptamer, many near background
With: Cy3 exosite-II aptamer, 400 nM
Direction: higher = stronger binding
Strand: GGTTGGTGTGGTTGG
Modification	mean fluorescence intensity [a.u.]
2'F-ANA at 4 6 8 12 13 14	101
2'F-ANA at 1 2 4 7 8 9 10 14 15	47.5
2'F-ANA at 1 4 9 11 12 15	201
2'F-ANA at 4 6 7 8 9 11 12 13 14	87.3
2'F-ANA at 1 2 4 5 8 9 11 12 13	64.5
2'F-ANA at 2 5 6 7 8 10 11 15	55.6
2'F-ANA at 1 2 3 4 6 7 13 14	56.5
2'F-ANA at 1 2 5 12 13 14 15	44.7
2'F-ANA at 1 2 4 9 11 13 14 15	48.5
2'F-ANA at 1 3 5 6 7 8 9 10 13 15	91
2'F-ANA at 3 5 6 7 9 14	51.9
2'F-ANA at 2 3 4 5 7 10 11 13 14	46.9
2'F-ANA at 1 2 4 5 6 7 11 15	55.5
2'F-ANA at 3 5 6 7 8 10 11 12 13	66.3
2'F-ANA at 1 2 4 5 8 9 10 13	45.3
2'F-ANA at 2 6 8 10 12 15	142
2'F-ANA at 1 2 3 4 7 9 11 15	142
2'F-ANA at 2 3 4 7 8 9 10 14 15	174
2'F-ANA at 8 9 12 13 14	234
2'F-ANA at 1 2 4 6 7 9 11 12 13 14	48.8
2'F-ANA at 4 5 6 7 9 11 12 14 15	51.1
2'F-ANA at 1 6 8 9 10 11 15	58
2'F-ANA at 1 3 4 6 9 10 11 12 14	58.5
2'F-ANA at 2 3 4 5 6 7 8 9 11 12 13 15	91.1

Some of these lines once more (set 2):
Strand	E-score
ATTCAATC	-0.0341
AGCGCCAA	-0.0725
GATATGAC	-0.0281
CTCCCGGA	0.215
ATCCTGCA	0.0554
CAGATGAC	-0.172
CCGTGTGA	0.0343
CGGTCAGA	0.0627
CCAAATTA	0.0454
AGCTACCC	-0.0821
CATCCATC	-0.226
CCGTGAAC	0.0628
CTCGGGAA	0.166
AGGCAACG	0.145
